Measurements from different studies.
ABL1 T315I phosphorylated: Tyrosine-protein kinase ABL1, phosphorylated (ABL1, Homo sapiens, UniProt P00519, T315I)
ABL1 T315I non-phosphorylated: Tyrosine-protein kinase ABL1, non-phosphorylated (ABL1, Homo sapiens, UniProt P00519, T315I)

CNC(=O)C1CCN(c2cc(C)c(F)cc2NC(=O)c2ccc(-c3cc(O)ccc3C)c(C)c2)CC1  remaining binding (ABL1 T315I phosphorylated; binding, competition with immobilised ligand; 1 µM): 95%
Cc1cnc2nc1Nc1cccc(c1)COC/C=C/COCc1cc(ccc1OCCN1CCOCC1)N2  remaining binding (ABL1 (Homo sapiens, UniProt P00519, Y253F); binding; 0.1 µM): 63%
CNC1C[S+]2CC[S+]3CC[S+](C1)[Ru-4]321([N]=C=S)[n]2c3ccc(OC)cc3c3c4c(c5cc(F)c[n+]1c5c32)C(=O)NC4=O (stereo not drawn)  remaining binding (Tyrosine-protein kinase ABL1, non-phosphorylated (ABL1, Homo sapiens, UniProt P00519, Q252H); KinomeScan; 0.1 µM; relative to: untreated): 90%
CC(C)=CC1OC(C)(C)C2C=C3C(=O)C(Cl)=CC(O)C3C3C(O)C4OC4C(=O)C132 (stereo not drawn)  remaining binding (ABL1 T315I phosphorylated; cell-free assay, competition with immobilised ligand; 10 µM): 78%
CCN1CCN(Cc2ccc(C(=O)Nc3ccc(C)c(NCc4cnc5[nH]ccc5c4OC)c3)cc2C(F)(F)F)CC1  remaining binding (Tyrosine-protein kinase ABL1, phosphorylated (ABL1, Homo sapiens, UniProt P00519, H396P); binding, competition with immobilised ligand; 1 µM): 0.45%
C=CC(=O)N1CCc2ccc(-n3c(=O)ccc4cnc5ccc(-c6cnn(C)c6)cc5c43)cc21  remaining binding (ABL1 T315I non-phosphorylated; KINOMEscan, item: (T315I)-nonphosphorylated; 1 µM; relative to: control): 87%
Cc1ccc(-c2c(/C=C(\C#N)C(=O)NC(C)C)n(CCCO)c3ncnc(N)c23)cc1  remaining binding (ABL1 T315I non-phosphorylated; cell-free assay, competition with immobilised ligand; 1 µM): 100%
Nc1ncc2c(n1)-c1c([nH]c3ccc(C4=CCOCC4)cc13)CCC2  remaining binding (Tyrosine-protein kinase ABL1, phosphorylated (ABL1, Homo sapiens, UniProt P00519, Q252H); binding, competition with immobilised ligand; 1 µM): 47%
COc1cc(Nc2nccc(-c3cnn4nc(OC)ccc34)n2)cc(C(F)(F)F)c1  remaining binding (Tyrosine-protein kinase ABL1, phosphorylated (ABL1, Homo sapiens, UniProt P00519, F317L); binding; 1 µM): 92%

A few entries again:
Cc1ccc(-c2c(/C=C(\C#N)C(=O)NC(C)C)n(CCCO)c3ncnc(N)c23)cc1  remaining binding (ABL1 T315I non-phosphorylated; cell-free assay, competition with immobilised ligand; 1 µM): 100%
